Measured values of several laboratories.
Each numbered part is a random draw from the data of one study; scales do not carry over between parts.

Sample 1
Target: RING finger protein unkempt homolog, zinc fingers 1-6, GST-SBP tag (UNK, Homo sapiens, UniProt Q9C0B0, residues 30-357)
Chain of UniProt Q9C0B0 (30-357, looked up): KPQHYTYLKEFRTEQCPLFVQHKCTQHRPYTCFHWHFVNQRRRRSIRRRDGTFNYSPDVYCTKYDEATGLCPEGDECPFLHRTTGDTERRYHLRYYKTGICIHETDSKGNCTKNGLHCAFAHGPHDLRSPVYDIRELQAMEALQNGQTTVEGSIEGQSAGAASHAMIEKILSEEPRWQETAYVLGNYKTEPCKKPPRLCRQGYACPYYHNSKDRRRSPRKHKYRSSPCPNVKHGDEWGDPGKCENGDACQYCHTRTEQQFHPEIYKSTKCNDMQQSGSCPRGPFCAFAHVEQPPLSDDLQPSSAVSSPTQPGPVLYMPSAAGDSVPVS
Method: RNA Bind-n-Seq
Molecule type: RNA
Medium: in vitro
Concentration: not given
Setting: RNA with constant flanks, human and mouse sites, ends assumed
Reference: input RNA pool
Reading: higher = stronger binding
Measurement: bound/input enrichment
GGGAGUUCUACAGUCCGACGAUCCCGAAAGUAGUGAAUGAAAUAAACAUUGAAGAUUUGUGUCUUACUAAAGCAGCUUAUUGUAGGUGUUGGCGUUCUAAAACGUUUCCUGCCUGCGAUGGUUCACAUAAUAAACACAAUGAACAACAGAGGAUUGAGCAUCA: 4.7 ratio
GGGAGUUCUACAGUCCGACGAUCACAUCAAUGCAAGCUUGAAUAAGAAAAACAAAUUCUUCCUCCUAAGCCAUGGCAUAUCAGUUAUACAGAAAUACUACUUUGGGAAACAGUCUUCAGGAGAGCCUAGAUGAGCUCAUACAGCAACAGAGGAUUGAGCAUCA: 0.322 ratio
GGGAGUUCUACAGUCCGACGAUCGAUAUUUGUAAAUAAAGGUAGAAAUAUUAGAUCCAUUUCUGCAGAACUUACUGUACAGUUUAGUUGGAGUGUAGCACUGAAGAACUGUCAGCUCAGCGUUGACUGAGGAGAUAGUGAAAACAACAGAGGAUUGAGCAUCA: 0.92 ratio
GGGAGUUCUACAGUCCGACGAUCGCUUUUAAUGGAGUUAUGUUUGGAGACAGGCCACUGAAAAUAAAUCACUCCAACAAUGCAAUAGUAAAACCCCCUGAGAUGACACCUCAGGCUGCAGCUAAGGAGUUAGAAGAAGUAAUGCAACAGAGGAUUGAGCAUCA: 1.71 ratio
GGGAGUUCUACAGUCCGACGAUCUUUUAGAGAAAAUACUGUUACUUGGCAUUAAUUGUCCAUUUACAGUGUUCUGUUAAGUUCCUCAUGCUAUGCACCUUACAUAAUUUCCCUAAAGAACAGUCAUCUAUCACUGUGGUGUUACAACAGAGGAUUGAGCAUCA: 0.244 ratio
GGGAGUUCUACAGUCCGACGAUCUUUCUUUCCAUAAGAGAUGUGUCUUGCUUAUGAAGUGAUCUAACUUUGGCUAUGCUUGUAGGCCCGUGGGACGUGCAUGUGCACAGUGACUUGGCAAAGGAUCUAGAUGAGAAUGAAGUUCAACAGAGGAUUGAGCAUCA: 0.542 ratio
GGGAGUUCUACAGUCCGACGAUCUCAAUUCUUCAAGAAAAAUUGCAAGAAAUCAGAAAGCAUUAUCUGUCUUUAAAAUCUGAAGUAGCUUCCAUUGAUAGGAGGAGAAAACGUUUAAAGAAGAAAGAGAGAGAAAGUGCUGCUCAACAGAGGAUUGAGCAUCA: 0.498 ratio
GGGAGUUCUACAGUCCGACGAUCGUGAAGAAAGCUAAGAUCCGACAUUGAUAAAUGUGUGUUAUUGUUCCAUUUCUUGGGUUCUUCCUGGACUUGUCUGAGUCGACAAGAGUGCUGCACAUUGUUAAGGGGAAUCAACAGAUUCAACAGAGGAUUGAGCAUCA: 0.248 ratio

Sample 2
Target: RNA binding protein fox-1 homolog 2, RRM domain, GST-SBP tag (RBFOX2, Homo sapiens, UniProt O43251-10, residues 100-194)
Method: RNA Bind-n-Seq
Molecule type: RNA
Medium: in vitro
Concentration: 365 nM
Setting: natural RNA segment, single round, ends assumed
Reference: no-protein control
Reading: higher = stronger binding
Measurement: RBNS enrichment (R)
Construct (chain): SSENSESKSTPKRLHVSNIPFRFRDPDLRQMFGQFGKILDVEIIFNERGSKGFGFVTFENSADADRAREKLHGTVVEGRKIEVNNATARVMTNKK
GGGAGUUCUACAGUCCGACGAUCGUCUCCAUCCUUCCCUCUCCUUUUCUGUCACCUUUCCCCCUAGCUGGCUCCUUUGGACCUACCCCUGUCCUUGCUGACUUGUGUUGCAUUGUAUUCCAAACGUGUUUACAUGGAAUUCUCGGGUGCCAA: 0.816
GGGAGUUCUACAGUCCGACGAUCAAAAAAAACACCCAUCCCUCAAAAAGGCCAAGGUCCCGUCCCCCUGUUGUCGGUGAUUUGUUUGUCUUUCUGAUAGGUUGAAAAUUGUGUAAUAAACUUGAUGACGCUGUUGGAAUUCUCGGGUGCCAA: 0.27
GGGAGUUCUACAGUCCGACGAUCCCAUGGAGAUUGUUUUACAAACUUUUGAUGUGGUCAAGUUCAGUUUUAGAAAAGGGAGUCUGUUCCAGAUCAGUGCCAGAACUGUGCCCAGGCCCAAAGGAGACAACUAAUGGAAUUCUCGGGUGCCAA: 0.277
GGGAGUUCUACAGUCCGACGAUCAAGGGUGUGAAGAAGGAAUAGUUUUAUAAUCUCGGAAGAUGAUACCAAGAGCAGAGGCAACAAAUAGAGGCCUGGCCUCCAGGUGCCGGAUCCAGACACCUGACCUAGAAUGGAAUUCUCGGGUGCCAA: 0.554
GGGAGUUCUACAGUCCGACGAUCAGAUCACACCACUGCACUCCAGCCUGGGUGACAGAGCAAGACCCUGUCUCAAAAAAAAAAAAAAAAAAAAUGGAAGUUGUGGUCACAAUGCCCAGGCUUCUUUGUUAUAGUGGAAUUCUCGGGUGCCAA: 0.682
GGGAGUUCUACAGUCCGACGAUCGCAUGCCAGUGAAGCGUUACCAUAGAAGAGCCAGCCGUUUGUGUUCGCUUGGUAGGUGUAAGUAAUAGCAGCCCUUAGCCACGGAGUCUUUAUGUGGUUUAUUCCUGCAAUGGAAUUCUCGGGUGCCAA: 6.83
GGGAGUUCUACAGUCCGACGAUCGCCUGGAUGAGUUGCACCUUGCAUCUUGAGCAUGCAUUUCUCACAAUAAUUAUUAAGCUGUGUGAUAAUUUCUGCUUUCAGGACACUCAUCCAUUAUCUUGGCUGUGAGCUGGAAUUCUCGGGUGCCAA: 3.79
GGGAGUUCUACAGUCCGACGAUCGGCAUGGUGGCACACGCCUGUAAUCCCAGCUACACCUGAGGCUGAGGCAGGAGAAUUGCUUGAACCGGGGAGACGGAGGUUGCAGUGAGCCGAGUUUGGGCCACUGCACUUGGAAUUCUCGGGUGCCAA: 3.18

Sample 3
Target: Interferon regulatory factor 7, full length, phosphomimetic (IRF7, Homo sapiens, UniProt Q92985, residues 1-503, S471D/S472D/S475D/S476D/S477D/S483D/S484D/S487D)
Method: protein-binding microarray
Molecule type: double-stranded DNA, one strand shown
Medium: in vitro
Concentration: 2200 nM top
Setting: 60-bp whole probe
Together with: salmon DNA 0.4 mg/ml
Reference: random background probes
Reading: higher = stronger binding
Measurement: fitted relative affinity
Shared flanks, not repeated: GCCTAGCAC … GTCTTGATTCGCTTGACGCTGCTG
Residues (chain): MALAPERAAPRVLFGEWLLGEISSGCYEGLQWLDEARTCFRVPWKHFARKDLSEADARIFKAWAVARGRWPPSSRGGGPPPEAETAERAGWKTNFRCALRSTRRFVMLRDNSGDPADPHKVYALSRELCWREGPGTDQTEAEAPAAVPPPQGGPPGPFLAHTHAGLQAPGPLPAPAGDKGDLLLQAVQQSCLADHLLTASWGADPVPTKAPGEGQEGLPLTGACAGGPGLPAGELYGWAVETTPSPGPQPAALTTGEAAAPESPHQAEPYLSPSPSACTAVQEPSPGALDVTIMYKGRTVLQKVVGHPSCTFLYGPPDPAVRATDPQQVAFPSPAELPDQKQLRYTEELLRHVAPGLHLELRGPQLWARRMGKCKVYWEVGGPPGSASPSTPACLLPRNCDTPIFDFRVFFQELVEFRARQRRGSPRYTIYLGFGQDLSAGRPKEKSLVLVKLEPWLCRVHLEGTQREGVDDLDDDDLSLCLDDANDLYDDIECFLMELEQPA
TCCTGTGTCTTAAATAGGGCAGTGCTA: 0.0259 z-score
GACGGTTTCCTACTGCTCACGTGCTAG: 2.02 z-score
GACGGTTTCGGACTGTGGACGTGCTAG: 3.98 z-score
TTAGGTATCGGACTGGGTAAGTGCTAG: -0.0949 z-score
CCACATTTGATAAATCTTTGTGTGCTA: 0.846 z-score
TTGGGTATCCTTCTCCTTTAGTGCTAG: 1.19 z-score
CTTGCTTCCCAATTCTCTTTGTGCTAG: 2.4 z-score
GACGGTTTCGACTGTCGGGACGTGCTA: 3.24 z-score
TTAGATTCCGGGACTGGATTAGTGCTA: -0.202 z-score
GACGGTTTCGGTTTCGGGTCGTGCTAG: 16.7 z-score
TCATCTATGTAGTTGATACTGTGCTAG: 1.44 z-score
ATGACAATGATGTTTTGAGTTGTGCTA: 0.282 z-score
GACGGACTGTGTTTCGGGACGTGCTAG: 1.18 z-score
GACGATATCAGTATCGAGAAGTGCTAG: 0.0832 z-score
CCAGGAAAAGGGATTCAGTTGTGCTAG: -0.589 z-score
TCACCTTTGCTTTCCTGACTGTGCTAG: 2.8 z-score
GACGGTATACTTTTCCTGACGTGCTAG: 0.932 z-score
GACGGACTGGACTATCGGGAAGTGCTA: -0.802 z-score
CTAGGTATCGGACTGGGTTAGTGCTAG: 0.0344 z-score

Sample 4
Target: PABPC1L2, full length, GST fusion (mouse, UniProt A0ABA7IW68)
Method: RNAcompete
Molecule type: RNA
Medium: in vitro
Concentration: 20 nM
Setting: 7-mer, probes averaged, single round
Reference: mean of 7-mers
Reading: higher = stronger binding
Measurement: 7-mer Z-score
Residues (chain): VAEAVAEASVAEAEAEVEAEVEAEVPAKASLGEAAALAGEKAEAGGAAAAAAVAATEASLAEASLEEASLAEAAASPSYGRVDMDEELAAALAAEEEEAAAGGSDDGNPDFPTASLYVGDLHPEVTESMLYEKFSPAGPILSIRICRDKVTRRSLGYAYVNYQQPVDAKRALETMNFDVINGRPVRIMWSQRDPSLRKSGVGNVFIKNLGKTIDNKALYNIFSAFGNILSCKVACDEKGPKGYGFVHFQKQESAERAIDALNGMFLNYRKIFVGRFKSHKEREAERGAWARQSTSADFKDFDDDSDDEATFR
CAGACAU: -0.0645
GGAUAGC: 0.017
CAUACAA: 0.408
AACGCAA: 0.265
AGAUCUA: -0.151
GCCCGUU: -0.476
UGAUCCU: -0.248
GAGAUGU: -0.0554
UUAGGUG: -0.00289
AACGUAU: 0.186
GUAAGGC: 0.0623
GAAGACG: 0.111
GCCCAUC: -0.224
UUUUUUA: 0.00798
CGAGGGC: 0.345
GUUGAGA: -0.137
AGACUAC: -0.17
GUACCGA: -0.202
UCUCAAA: 0.276
UUGUUAC: -0.306
AGCUUGA: -0.142
AACUCGC: -0.144
GUUCGUG: -0.44
GAGUCCU: -0.344
AAGUGUA: 0.32

Some of these lines once more (sample 3):
GACGATATCAGTATCGAGAAGTGCTAG: 0.0832 z-score
CCAGGAAAAGGGATTCAGTTGTGCTAG: -0.589 z-score
TCACCTTTGCTTTCCTGACTGTGCTAG: 2.8 z-score
